Experimental data of several laboratories.
Protocols differ between the studies behind these lines. “And” joins repeats or separate records; there may be more than shown. ± gives the spread as reported.

SMILES | target or system | assay | system | conditions | scale | quantity | result
CC/C(=N\NC(=O)NCc1cccc(O)c1)c1ccc(O)c(C)c1O | SK-OV-3 | Western blot, measured: LATS | – | 5 µM, 1 h, 2D culture, unit not given | relative to: β-actin | protein level | 0.68 ± 0.47
Nc1cc(C(F)(F)F)c(-c2cc(N3CCOCC3)nc(N3CCOCC3)n2)cn1 | HD-MB03 | cell growth | – | 168 h, DMSO | – | IC50 | 0.863 µM
Cn1cc(Nc2nccc(-c3ccc4c(c3)CN(C3COC3)CC[C@H]4NC(=O)c3cn(C(C)(C)C)nn3)n2)cn1 | mouse splenic B cells | measured: AMPK signalling | – | 30 mg/kg, IgD-activated in vivo | relative to: vehicle, direction not given | pathway activation z-score | 3.53
CCC(C)n1ncn(-c2ccc(N3CCN(c4ccc(OCC5COC(Cn6cncn6)(c6ccc(Cl)cc6Cl)O5)cc4)CC3)cc2)c1=O (stereo not drawn) | HD-MB03 | cell growth | – | 168 h, single agent | – | IC50 | 0.684 µM
COc1cc2ncnc(Nc3ccc(Oc4ccccc4)cc3C)c2cc1OC.O=C(O)C(F)(F)F | SK-MEL-2 (NRAS Q61R) | resazurin | – | concentration not given, 72 h, with: trametinib | direction not given | Bliss synergy score | 116%
CC1=C(Cn2cc(C(C)(C)O)nn2)C(=O)c2ccccc2C1=O | Schistosoma mansoni | – | adult worms | 25 µM, 48 h | – | killing | 44.8%
C=Cc1c2[n-]c(c1C)/C=c1\[n-]/c(c(C)c1C=C)=C\c1[n-]c(c(CCC(=O)O)c1C)/C=c1\[n-]c(c(C)c1CCC(=O)O)=C2.[Sn+4] | SH-SY5Y | RNA-seq, measured: CCN1 mRNA | – | 5 µM, 5 h | relative to: untreated cells | fold change | 2.4
COc1cnc2cccc(N3CCc4c(cc(Cn5ccnc5C)cc4-c4cn(C)nc4C(F)(F)F)C3=O)c2c1 | HEC-1B | cell growth, inhibitor | – | 120 h | – | EC50 | 4.07 µM
Cc1nn(-c2nc3c(F)cc(F)cc3s2)c(O)c1C(c1ccc(C(F)(F)F)cc1)c1c(C)nn(-c2nc3c(F)cc(F)cc3s2)c1O | RAW-ISG | IFN luciferase reporter | – | 1.25 µM, with: HT-DNA | – | inhibition | 19% and 20.7% and 13.8% and 25.8% and 24.8%
Cc1ccc(-c2cc3ccccc3c(N)n2)cc1 | SEM | annexin V-FITC/PI flow cytometry, measured: annexin V+ PI- | – | 5.0 µM, 72 h | – | early apoptotic cells | 4.1%
O=C(O)COCC(=O)O | iPSC-derived hepatocytes B3 | cell viability | – | 48 h, differentiation day 23 | – | IC50 | 7890 µM
NS(=O)(=O)c1cc2c(cc1Cl)N=C(CSCc1ccccc1)NS2(=O)=O | Nedd8-cullin1 interaction | neddylation, AlphaScreen | – | 100 µM | – | inhibition | 93%
O=C(/C=C/C=C/C=C/C1CCCCC1)NC1=C[C@@](O)(/C=C/C=C/C=C/C(=O)NC2=C(O)CCC2=O)[C@@H]2O[C@@H]2C1=O | 786-O | CellTiter-Glo | – | 78 h | – | GI50 | 12 µM
COc1cc([C@@H]2c3cc4c(cc3[C@@H](O[C@@H]3O[C@@H]5CO[C@@H](C)O[C@H]5[C@H](O)[C@H]3O)[C@H]3COC(=O)[C@H]23)OCO4)cc(OC)c1O | HD-MB03 | cell growth | – | 168 h, single agent | – | IC50 | 0.0397 µM
C[C@]12CC[C@@H]3c4ccc(OS(=O)(=O)O)cc4CC[C@H]3[C@@H]1CCC2=O | primary rat hippocampal/cortical neuron-glia cultures | – | – | 1 µM, with: 1 µM α-synuclein oligomers | – | reversal of trafficking deficit | 13.3%
CCn1cc(-c2cc(Cn3ccoc3=N)cc3c2CCN([C@@H](C)c2cc(OC)ccn2)C3=O)c(C(F)(F)F)n1 | HCT-8 | cell growth, inhibitor | – | 120 h | – | EC50 | > 30 µM
Cc1cnc(NC2CCOCC2)nc1-n1cnc(C(=O)NC(CN)c2cc(F)cc(Cl)c2)c1 (stereo not drawn) | A-375 | flow cytometry | – | 1 µM, 72 h | – | S phase cells | 3.6%
C[C@]1(c2nc3c(C(N)=O)cccc3[nH]2)CCCN1 | HD-MB03 | – | – | 168 h | – | IC50 | inactive
CC1(C)COc2ccc(F)cc2CN2c3nc4c(cnn4cc3OC[C@H]2C(F)F)C(=O)N1 | NCI-H3122 (EML4-ALK variant 1) | cell viability | – | – | – | Emax | 82.9%
COc1ccc(-n2nc(C(C)=O)s/c2=N\N=C(/C)c2ccc(NC(=O)c3ccc(Cl)cc3)cc2)cc1 | MCF7 | – | – | 5 µM | – | viability | 3.71%
Cc1cccc(-c2[nH]c(CNc3ccccc3F)nc2-c2ccc3ncnn3c2)n1 | MM1.S pomalidomide-resistant | XTT | – | 0.5 µM | – | viability | 101% and 96% and 97%
Cn1cc(-c2ccc(-c3cncc(Cl)c3N3CCC4(CCNC4=O)CC3)cc2)cn1 | COLO 205 | gene expression, microarray, measured: EDN2 mRNA | – | concentration not given, 2 h | relative to: untreated cells | log2 fold change | 1.92
CN1C2=CC(=O)/C(=N\NC(N)=O)C=C2CC1S(=O)(=O)[O-].[Na+] (stereo not drawn) | Nedd8-cullin1 interaction | neddylation, AlphaScreen | – | 100 µM | – | inhibition | -35.8%
Clc1nc(NCc2ccco2)c2[nH]cnc2n1 | iPSC-derived cardiomyocytes | RNA-seq, measured: BCL11A chr2 exon ending 60462424 | – | unit not given | relative to: DMSO minus compound | ΔPSI | -0.321

For quick reference, copied from above:
SMILES | target or system | assay | system | conditions | scale | quantity | result
COc1cc([C@@H]2c3cc4c(cc3[C@@H](O[C@@H]3O[C@@H]5CO[C@@H](C)O[C@H]5[C@H](O)[C@H]3O)[C@H]3COC(=O)[C@H]23)OCO4)cc(OC)c1O | HD-MB03 | cell growth | – | 168 h, single agent | – | IC50 | 0.0397 µM
CCn1cc(-c2cc(Cn3ccoc3=N)cc3c2CCN([C@@H](C)c2cc(OC)ccn2)C3=O)c(C(F)(F)F)n1 | HCT-8 | cell growth, inhibitor | – | 120 h | – | EC50 | > 30 µM
C[C@]12CC[C@@H]3c4ccc(OS(=O)(=O)O)cc4CC[C@H]3[C@@H]1CCC2=O | primary rat hippocampal/cortical neuron-glia cultures | – | – | 1 µM, with: 1 µM α-synuclein oligomers | – | reversal of trafficking deficit | 13.3%
